Experimental data gathered from unrelated publications.
Numbered parts are unrelated; each lists some results of a single study. Positions count from the first letter of the parent shown.
Chain of UniProt O23661 (whole entry, looked up): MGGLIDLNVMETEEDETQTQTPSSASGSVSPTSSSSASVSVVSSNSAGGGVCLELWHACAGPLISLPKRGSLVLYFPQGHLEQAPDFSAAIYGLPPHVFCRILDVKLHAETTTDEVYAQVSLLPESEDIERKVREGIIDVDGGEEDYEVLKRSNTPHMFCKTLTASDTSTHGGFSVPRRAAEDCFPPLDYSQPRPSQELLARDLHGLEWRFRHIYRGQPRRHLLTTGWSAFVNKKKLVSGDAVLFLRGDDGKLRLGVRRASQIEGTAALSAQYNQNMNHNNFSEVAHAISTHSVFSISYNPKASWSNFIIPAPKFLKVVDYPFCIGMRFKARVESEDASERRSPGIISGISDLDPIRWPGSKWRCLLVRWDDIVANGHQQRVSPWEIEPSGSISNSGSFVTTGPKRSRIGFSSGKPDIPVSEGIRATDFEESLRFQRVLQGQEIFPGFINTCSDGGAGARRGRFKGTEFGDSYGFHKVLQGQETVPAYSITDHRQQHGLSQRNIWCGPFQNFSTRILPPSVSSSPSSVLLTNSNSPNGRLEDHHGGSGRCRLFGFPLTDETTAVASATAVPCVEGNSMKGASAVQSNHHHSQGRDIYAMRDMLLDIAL
Chain of UniProt Q8L7G0 (whole entry, looked up): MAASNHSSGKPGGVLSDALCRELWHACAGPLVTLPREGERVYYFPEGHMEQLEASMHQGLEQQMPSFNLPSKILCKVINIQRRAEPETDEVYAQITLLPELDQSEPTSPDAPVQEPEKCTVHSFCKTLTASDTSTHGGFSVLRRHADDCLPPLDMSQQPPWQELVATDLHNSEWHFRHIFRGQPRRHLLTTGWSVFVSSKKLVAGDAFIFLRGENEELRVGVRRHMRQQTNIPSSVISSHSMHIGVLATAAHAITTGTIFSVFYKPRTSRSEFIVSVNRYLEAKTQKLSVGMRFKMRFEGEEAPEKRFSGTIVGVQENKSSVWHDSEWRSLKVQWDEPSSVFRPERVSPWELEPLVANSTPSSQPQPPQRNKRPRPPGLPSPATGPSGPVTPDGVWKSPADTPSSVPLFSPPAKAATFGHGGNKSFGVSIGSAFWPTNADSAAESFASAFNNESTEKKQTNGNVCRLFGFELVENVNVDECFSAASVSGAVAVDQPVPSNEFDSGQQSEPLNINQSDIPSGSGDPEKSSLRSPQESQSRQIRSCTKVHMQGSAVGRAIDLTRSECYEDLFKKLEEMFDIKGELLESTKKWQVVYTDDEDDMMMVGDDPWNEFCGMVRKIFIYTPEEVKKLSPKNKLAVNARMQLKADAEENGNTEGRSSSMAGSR
Chain of UniProt P93022 (whole entry, looked up): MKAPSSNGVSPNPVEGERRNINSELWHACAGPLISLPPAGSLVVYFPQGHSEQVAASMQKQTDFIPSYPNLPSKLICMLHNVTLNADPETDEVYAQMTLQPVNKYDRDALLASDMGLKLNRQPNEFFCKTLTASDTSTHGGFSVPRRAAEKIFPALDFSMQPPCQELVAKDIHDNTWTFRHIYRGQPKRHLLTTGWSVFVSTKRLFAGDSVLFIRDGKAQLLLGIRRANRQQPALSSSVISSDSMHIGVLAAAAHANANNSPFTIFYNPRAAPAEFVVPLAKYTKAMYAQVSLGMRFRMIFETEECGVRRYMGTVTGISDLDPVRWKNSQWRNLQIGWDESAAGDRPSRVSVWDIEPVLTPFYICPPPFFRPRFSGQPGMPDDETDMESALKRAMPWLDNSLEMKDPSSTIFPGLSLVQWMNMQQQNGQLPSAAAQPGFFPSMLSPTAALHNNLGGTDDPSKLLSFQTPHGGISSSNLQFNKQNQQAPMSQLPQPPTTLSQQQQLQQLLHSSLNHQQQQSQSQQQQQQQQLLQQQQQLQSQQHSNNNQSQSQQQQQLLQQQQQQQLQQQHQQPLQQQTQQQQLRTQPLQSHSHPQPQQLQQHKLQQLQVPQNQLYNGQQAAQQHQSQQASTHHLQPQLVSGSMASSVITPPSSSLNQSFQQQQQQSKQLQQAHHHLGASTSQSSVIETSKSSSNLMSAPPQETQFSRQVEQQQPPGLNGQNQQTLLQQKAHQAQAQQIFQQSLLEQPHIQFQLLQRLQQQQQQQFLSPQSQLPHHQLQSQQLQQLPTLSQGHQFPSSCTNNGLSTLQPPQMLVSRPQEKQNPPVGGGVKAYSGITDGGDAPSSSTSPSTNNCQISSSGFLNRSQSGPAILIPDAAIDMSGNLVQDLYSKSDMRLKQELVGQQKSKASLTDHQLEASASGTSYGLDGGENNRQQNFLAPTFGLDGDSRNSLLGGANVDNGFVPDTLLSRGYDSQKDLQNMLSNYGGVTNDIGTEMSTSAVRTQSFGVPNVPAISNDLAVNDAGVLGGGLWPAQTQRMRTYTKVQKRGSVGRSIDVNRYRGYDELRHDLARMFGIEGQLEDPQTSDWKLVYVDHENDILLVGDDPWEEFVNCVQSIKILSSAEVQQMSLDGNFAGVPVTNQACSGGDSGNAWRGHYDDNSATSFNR
Chain of UniProt Q9LQE8 (whole entry, looked up): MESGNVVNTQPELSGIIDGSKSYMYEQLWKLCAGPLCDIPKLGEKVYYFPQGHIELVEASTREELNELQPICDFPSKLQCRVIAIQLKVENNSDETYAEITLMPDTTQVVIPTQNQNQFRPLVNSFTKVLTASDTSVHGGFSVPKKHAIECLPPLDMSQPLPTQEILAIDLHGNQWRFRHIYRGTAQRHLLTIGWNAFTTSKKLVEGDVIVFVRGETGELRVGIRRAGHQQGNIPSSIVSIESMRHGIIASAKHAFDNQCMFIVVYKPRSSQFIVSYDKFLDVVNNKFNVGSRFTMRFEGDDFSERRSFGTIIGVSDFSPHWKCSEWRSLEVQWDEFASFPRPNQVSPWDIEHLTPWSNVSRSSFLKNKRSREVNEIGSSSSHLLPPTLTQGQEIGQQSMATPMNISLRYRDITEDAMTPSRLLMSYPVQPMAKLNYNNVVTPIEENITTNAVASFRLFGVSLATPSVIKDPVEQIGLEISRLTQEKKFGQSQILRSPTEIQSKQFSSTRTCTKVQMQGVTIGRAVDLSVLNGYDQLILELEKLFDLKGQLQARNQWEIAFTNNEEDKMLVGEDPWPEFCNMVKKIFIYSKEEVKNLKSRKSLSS
Chain of UniProt Q8LAL2 (whole entry, looked up): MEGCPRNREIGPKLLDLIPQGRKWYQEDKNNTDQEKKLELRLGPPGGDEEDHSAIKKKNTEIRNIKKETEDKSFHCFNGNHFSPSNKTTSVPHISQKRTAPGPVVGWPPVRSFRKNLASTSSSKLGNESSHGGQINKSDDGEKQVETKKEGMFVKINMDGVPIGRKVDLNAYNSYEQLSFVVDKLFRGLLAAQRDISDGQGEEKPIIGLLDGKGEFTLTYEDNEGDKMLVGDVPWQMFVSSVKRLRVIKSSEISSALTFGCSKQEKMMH
Chain of UniProt P93024 (whole entry, looked up): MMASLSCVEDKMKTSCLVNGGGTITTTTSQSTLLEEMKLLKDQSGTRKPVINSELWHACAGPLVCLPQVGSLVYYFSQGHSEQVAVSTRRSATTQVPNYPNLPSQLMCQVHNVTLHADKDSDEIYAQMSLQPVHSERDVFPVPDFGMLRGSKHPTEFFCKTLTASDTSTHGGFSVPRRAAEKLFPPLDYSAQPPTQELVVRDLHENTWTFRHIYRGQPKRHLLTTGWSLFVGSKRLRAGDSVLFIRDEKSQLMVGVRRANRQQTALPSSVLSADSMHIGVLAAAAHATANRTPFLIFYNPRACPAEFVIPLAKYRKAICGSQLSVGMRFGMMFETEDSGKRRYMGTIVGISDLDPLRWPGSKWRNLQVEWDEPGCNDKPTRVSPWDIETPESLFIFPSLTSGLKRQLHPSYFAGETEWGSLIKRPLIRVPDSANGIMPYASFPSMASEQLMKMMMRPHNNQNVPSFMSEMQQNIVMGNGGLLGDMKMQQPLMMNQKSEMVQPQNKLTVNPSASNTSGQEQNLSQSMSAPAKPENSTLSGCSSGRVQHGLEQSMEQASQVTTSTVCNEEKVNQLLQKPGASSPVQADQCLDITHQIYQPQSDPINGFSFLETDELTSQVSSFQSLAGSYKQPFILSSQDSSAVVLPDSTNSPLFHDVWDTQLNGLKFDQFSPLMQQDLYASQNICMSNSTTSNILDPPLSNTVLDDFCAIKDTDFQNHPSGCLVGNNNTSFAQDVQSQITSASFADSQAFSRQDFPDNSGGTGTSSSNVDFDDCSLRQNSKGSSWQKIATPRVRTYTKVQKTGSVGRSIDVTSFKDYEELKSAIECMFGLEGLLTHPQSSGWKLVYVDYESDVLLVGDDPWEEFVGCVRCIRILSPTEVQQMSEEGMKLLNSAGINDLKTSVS
Chain of UniProt Q8RYC6 (whole entry, looked up): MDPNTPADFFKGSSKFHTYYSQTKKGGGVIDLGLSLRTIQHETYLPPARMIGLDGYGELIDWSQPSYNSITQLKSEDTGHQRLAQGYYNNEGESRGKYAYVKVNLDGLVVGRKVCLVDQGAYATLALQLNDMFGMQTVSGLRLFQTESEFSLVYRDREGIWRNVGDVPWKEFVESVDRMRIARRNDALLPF

Sample 1
Target: Interferon regulatory factor 5, full length, phosphomimetic (IRF5, Homo sapiens, UniProt Q13568-2, residues 1-514, S451D/S453D/S456D/S462D)
Method: protein-binding microarray
Molecule type: double-stranded DNA, one strand shown
Sample: in vitro
Tested at: 940 nM top
Setting: 60-bp whole probe
With: salmon DNA 0.4 mg/ml
Baseline: random background probes
Direction: higher = stronger binding
All sequences stand within: GCCTAGCAC … GTCTTGATTCGCTTGACGCTGCTG
`TTAGGTCTCCTACTGCTTTGGTGCTAG` — result for “fitted relative affinity”: 0.00411 z-score.
Under “fitted relative affinity”, `TTAGGTATCGGTCACGGTTAGTGCTAG` is recorded as 9.78 z-score.
`TCAGGTATCGACTTTCGGTTAGTGCTA` — result for “fitted relative affinity”: 5.92 z-score.
Under “fitted relative affinity”, `GGGCCTTGCATGTTTTTGACAGTGCTA` is recorded as -0.248 z-score.
`TTTTTGTTGTTTTTTGGTTTGTGCTAG`: “fitted relative affinity” 1.85 z-score.
Under “fitted relative affinity”, `TCAACAATGATGTTTTGAACTGTGCTA` is recorded as -0.209 z-score.
Under “fitted relative affinity”, `TCATTTTGCTTTCTTTAACTGTGCTAG` is recorded as 2.1 z-score.
`TTGGGTATCCTTCTCCTTTAGTGCTAG` — result for “fitted relative affinity”: 0.724 z-score.
`GACGGTATCCTTCTCCTGGCGTGCTAG` — result for “fitted relative affinity”: 0.852 z-score.
`TTAGGTATCGGTATCGCTTAGTGCTAG` — result for “fitted relative affinity”: 9.93 z-score.
For `TCACATTGCCTGTTTTTCACTGTGCTA`, “fitted relative affinity” read 1.21 z-score.
Under “fitted relative affinity”, `TTAGGTATCGACTATCGGTCAGTGCTA` is recorded as 5.94 z-score.
`ATAGGTCTCGGTCTCGGTTAGTGCTAG`: “fitted relative affinity” 5.03 z-score.
`GATGGAAACTTAAACTAGAAAGTGCTA`: “fitted relative affinity” 0.26 z-score.
Under “fitted relative affinity”, `TGCCCCCACACTCCTAGCACGTGCTAG` is recorded as 0.886 z-score.
`TCAGATTTCAGGAATTGAACTGTGCTA`: “fitted relative affinity” -0.444 z-score.
For `TCAGCTTCCTCTCTGCCACTGTGCTAG`, “fitted relative affinity” read 0.758 z-score.
Under “fitted relative affinity”, `TTAGATATCGGGACTGCATTAGTGCTA` is recorded as 0.0601 z-score.
For `AGAGCTCTGGCACCTCTAGACGTGCTA`, “fitted relative affinity” read -0.812 z-score.
For `TTTGGTCTCCTTCTCCTTTAGTGCTAG`, “fitted relative affinity” read 1.14 z-score.
`GACGGTTTCGGGACTGGAGACGTGCTA`: “fitted relative affinity” 6.31 z-score.
For `TCATATATTATATATACAACTGTGCTA`, “fitted relative affinity” read 0.372 z-score.

Sample 2
Target: CCND1, cyclin fold, Cln2 fusion (human)
Method: yeast growth competition, sequencing
Sample: yeast
Setting: weak parent motif
Baseline: not given
Direction: higher = stronger binding
Parent: LLGL2 docking peptide (human); KSLKKSLRQSFRR; partner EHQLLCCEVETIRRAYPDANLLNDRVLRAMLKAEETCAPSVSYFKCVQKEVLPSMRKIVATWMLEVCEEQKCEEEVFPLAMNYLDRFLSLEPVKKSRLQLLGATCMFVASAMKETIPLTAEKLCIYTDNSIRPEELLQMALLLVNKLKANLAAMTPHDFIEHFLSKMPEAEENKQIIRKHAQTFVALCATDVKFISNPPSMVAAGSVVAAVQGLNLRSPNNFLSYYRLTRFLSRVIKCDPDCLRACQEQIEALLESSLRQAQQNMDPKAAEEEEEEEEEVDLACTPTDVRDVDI
For `S10A`, “normalised enrichment score” read 0.467.
`S2A`: “normalised enrichment score” 0.182.
`R8A` — result for “normalised enrichment score”: 0.65.
Under “normalised enrichment score”, `K1A` is recorded as 0.375.
For `S6A`, “normalised enrichment score” read 0.196.
Under “normalised enrichment score”, `K5A` is recorded as 0.782.
`Q9A` — result for “normalised enrichment score”: 0.854.

Sample 3
Molecule: B1 (IAA14)
Method: two-hybrid
Baseline: out of 4 tests
Direction: higher = firmer interaction
B1: IAA14 (Arabidopsis thaliana, UniProt Q38832); chain MNLKETELCLGLPGGTETVESPAKSGVGNKRGFSETVDLKLNLQSNKQGHVDLNTNGAPKEKTFLKDPSKPPAKAQVVGWPPVRNYRKNVMANQKSGEAEEAMSSGGGTVAFVKVSMDGAPYLRKVDLKMYTSYKDLSDALAKMFSSFTMGSYGAQGMIDFMNESKVMDLLNSSEYVPSYEDKDGDWMLVGDVPWPMFVESCKRLRIMKGSEAIGLAPRAMEKFKNRS
IAA32 (Arabidopsis thaliana, UniProt Q8RYC6) — positive tests: 1.
The positive tests was 2 (IAA26 (Arabidopsis thaliana, UniProt Q8LAL2)).
ARF1 538-665 (Arabidopsis thaliana, UniProt Q8L7G0) — positive tests: 0.
For ARF14 497-605 (Arabidopsis thaliana, UniProt Q9LQE8): positive tests read 0.
It gave 0 for positive tests (ETT (Arabidopsis thaliana, UniProt O23661)).
ARF5 788-902 (Arabidopsis thaliana, UniProt P93024) — positive tests: 2.
ARF7 1030-1164 (Arabidopsis thaliana, UniProt P93022) — positive tests: 3.

Sample 4
Target: ABI1, truncated, D143A, DHFR fusion (Arabidopsis thaliana)
Method: DHFR PCA, deep sequencing
Sample: yeast
Setting: methotrexate growth selection, single substitutions
With: (+)-ABA 2500 µM
Baseline: wild-type fitted maximum
Direction: higher = stronger binding
Parent: PYL1, truncated, DHFR fusion (Arabidopsis thaliana); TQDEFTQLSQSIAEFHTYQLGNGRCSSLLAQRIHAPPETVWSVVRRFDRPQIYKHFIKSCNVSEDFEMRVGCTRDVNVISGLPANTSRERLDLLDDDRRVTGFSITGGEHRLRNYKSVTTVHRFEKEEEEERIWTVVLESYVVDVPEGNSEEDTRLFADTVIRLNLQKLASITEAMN; partner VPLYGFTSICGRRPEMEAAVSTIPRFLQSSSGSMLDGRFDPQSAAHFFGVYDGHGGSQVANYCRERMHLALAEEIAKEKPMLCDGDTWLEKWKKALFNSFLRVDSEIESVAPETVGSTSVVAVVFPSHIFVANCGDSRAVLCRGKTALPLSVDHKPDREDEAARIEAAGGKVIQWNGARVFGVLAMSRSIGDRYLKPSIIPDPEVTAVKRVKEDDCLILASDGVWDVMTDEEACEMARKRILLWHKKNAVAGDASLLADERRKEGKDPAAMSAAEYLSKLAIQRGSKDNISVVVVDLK
`F157L` — result for “relative binding score”: 92.9%.
`G107V` — result for “relative binding score”: 71.4%.
`E38K`: “relative binding score” 95.3%.
`P146Q`: “relative binding score” 74.2%.
`V40C`: “relative binding score” 81.7%.
Under “relative binding score”, `D95Q` is recorded as 94%.
`A13R`: “relative binding score” 96.5%.
Under “relative binding score”, `E64G` is recorded as 96.6%.
Under “relative binding score”, `E128W` is recorded as 95%.
For `R123G`, “relative binding score” read 98.8%.
For `T154G`, “relative binding score” read 65.6%.
`E130P` — result for “relative binding score”: 107%.
`S150K` — result for “relative binding score”: 90.3%.
`I52E` — result for “relative binding score”: 93.1%.
For `V161F`, “relative binding score” read 94.9%.
Under “relative binding score”, `R132D` is recorded as 102%.
`V44I`: “relative binding score” 97.4%.
`G71W` — result for “relative binding score”: 65.4%.

Sample 5
Target: RING finger protein unkempt homolog, zinc fingers 1-6, GST-SBP tag (UNK, Homo sapiens, UniProt Q9C0B0, residues 30-357)
Method: RNA Bind-n-Seq
Molecule type: RNA
Sample: in vitro
Tested at: not given
Setting: RNA with constant flanks, human and mouse sites, ends assumed
Baseline: input RNA pool
Direction: higher = stronger binding
Target sequence (chain): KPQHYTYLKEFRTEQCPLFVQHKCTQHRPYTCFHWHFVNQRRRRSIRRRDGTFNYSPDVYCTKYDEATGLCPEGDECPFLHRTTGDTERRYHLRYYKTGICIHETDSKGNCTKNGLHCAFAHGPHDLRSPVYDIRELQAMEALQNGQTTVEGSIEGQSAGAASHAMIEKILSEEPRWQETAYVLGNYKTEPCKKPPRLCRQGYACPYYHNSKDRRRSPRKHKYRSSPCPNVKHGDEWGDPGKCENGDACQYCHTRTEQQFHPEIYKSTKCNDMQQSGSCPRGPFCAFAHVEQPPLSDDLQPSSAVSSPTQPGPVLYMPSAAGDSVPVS
For `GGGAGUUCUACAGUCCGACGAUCAGGUUUCAGGUACGUUCACCAACUUUCUUUCAAAAAUCCCGGGACCAGCAUUGGUACAUUACUCAGUUGGAAGCUGCACAGACUAGUUAUAUCCAACAAAUAAACAACCUUAAAGAGAGACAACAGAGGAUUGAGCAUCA`, the bound/input enrichment was 0.715 ratio.
The bound/input enrichment of `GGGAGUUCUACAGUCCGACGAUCGAAAGUGGGAGGGCAGGGAAGGGAAAAACUAAGAGUAAACUAAAAAGAAAUGAAUUGAUCUUUUUUGAAGUGUCAGUCAGAGUGUGAGGGUUUAUGGCUACUGAGUUAGACAUCACAGUGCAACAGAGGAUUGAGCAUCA` is reported as 0.785 ratio.
The bound/input enrichment of `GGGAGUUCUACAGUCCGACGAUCAGUUUGUGCCGUUGCCCUUUCCCCAUAUGCCACUAGUGUGUAGGCAGAUGUCUGAGUCUCUAGGUGGUUUCUCCAUUUUAUAGCAGUUAGCUUUGAUGACCCUACUCCACGAAAAAUAAACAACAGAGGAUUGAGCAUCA` is reported as 0.774 ratio.
`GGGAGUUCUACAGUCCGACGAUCCAGGGACGCUUUGAUGUAAAAAUUGAAAUUAAGAGCUGAUCACAAGCACAAAUCUUUCCCACUAGCCAUUUAAUAAGUUAAAAAAAGAUACACAAACCUACUAGUCUUGAACAAACUGUCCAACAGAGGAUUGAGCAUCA` gave a bound/input enrichment of 74 ratio.
`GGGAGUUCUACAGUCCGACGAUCCUUGAUGAUGAUGAGUGUCCUUUACAAAUCUUCAGGGAAUGGCCAAGUGACAAAGGGAUUUUAGUCUUUCAGUUGAAGAGGAGGCCACCAGACCACAUCCCAAAGAAAACCAAGAAACACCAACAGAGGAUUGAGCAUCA` gave a bound/input enrichment of 0.291 ratio.
With `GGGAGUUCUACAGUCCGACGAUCCUACCCUUGGCACAGGCCUCCAGUGAGCCUGUUCUGUUUCAGAAGAAAGGGGAAGCAGUGUAGCAUUUUUUGUUUGGUCUCUUAAAAAUGUGGUUAAAUCCACUAUUUUUUGCUCCUGUACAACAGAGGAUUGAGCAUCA` the bound/input enrichment was 0.245 ratio.
The bound/input enrichment of `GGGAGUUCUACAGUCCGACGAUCUUUCCAAAGCAGCCAGGAACAUCAGGUGCUUAUCCUCUUACUUCACCCCCUACAUCUUAUCAUAGCACAGUCAAUCAGUCUCCCUCAAUGAUGCACACACAGUCUCCAGGAAAUCUGCAUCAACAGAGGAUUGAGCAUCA` is reported as 1.58 ratio.
With `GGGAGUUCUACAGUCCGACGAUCGCUUACAAAGCUGCUAGUGACAUUGCGAUGACAGAACUUCCUCCAACGCACCCCAUUCGUUUAGGUCUUGCUCUCAACUUUUCCGUAUUCUACUAUGAAAUUCUUAAUUCCCCCGACCGUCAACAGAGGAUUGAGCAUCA` the bound/input enrichment was 1.22 ratio.
`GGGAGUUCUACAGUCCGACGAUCCUGGCGGUGGAGGCGUGCGUGAACAUCGCCCAGCUUCUGCCCCAGGAGGAUCUGGAGGCCCUGGUGAUGCCCACUCUGCGCCAGGCCGCUGAAGACAAGUCCUGGCGCGUCCGCUACAUGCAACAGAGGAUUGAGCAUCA` gave a bound/input enrichment of 0.036 ratio.
For `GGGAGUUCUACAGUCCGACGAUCGAAGGACUGUAAUCAUAAUAAGCUCACUACUUGGCUAUUGUUUUUGUUUUAAUAUUCAACUAUAGUAGUGUUUUAAAAAAAGUUAAAUGAAGAAUAAACACAAAUAUAAAAGCUCUGACUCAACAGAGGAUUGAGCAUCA`, the bound/input enrichment was 0.355 ratio.
`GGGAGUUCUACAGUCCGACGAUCGGACUAGAACACGUUACUGUUGAUGACUUGGUGGCUGAAAUCACUCCAAAAGGCAGAGCCCUGGUACCUGACAGUGUAAAGAAGGAGCUCCUACAGAGAAUAAGAACAUUCCUUGCUCAGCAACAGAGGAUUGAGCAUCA` gave a bound/input enrichment of 0.109 ratio.

Some of these lines once more (sample 2):
For `S10A`, “normalised enrichment score” read 0.467.
`S2A`: “normalised enrichment score” 0.182.
`R8A` — result for “normalised enrichment score”: 0.65.
Under “normalised enrichment score”, `K1A` is recorded as 0.375.
